Assay results collected from several papers.
Each numbered part is a random draw from the data of one study; scales do not carry over between parts.
Sequence of UniProt Q8L7G0 (whole entry, looked up): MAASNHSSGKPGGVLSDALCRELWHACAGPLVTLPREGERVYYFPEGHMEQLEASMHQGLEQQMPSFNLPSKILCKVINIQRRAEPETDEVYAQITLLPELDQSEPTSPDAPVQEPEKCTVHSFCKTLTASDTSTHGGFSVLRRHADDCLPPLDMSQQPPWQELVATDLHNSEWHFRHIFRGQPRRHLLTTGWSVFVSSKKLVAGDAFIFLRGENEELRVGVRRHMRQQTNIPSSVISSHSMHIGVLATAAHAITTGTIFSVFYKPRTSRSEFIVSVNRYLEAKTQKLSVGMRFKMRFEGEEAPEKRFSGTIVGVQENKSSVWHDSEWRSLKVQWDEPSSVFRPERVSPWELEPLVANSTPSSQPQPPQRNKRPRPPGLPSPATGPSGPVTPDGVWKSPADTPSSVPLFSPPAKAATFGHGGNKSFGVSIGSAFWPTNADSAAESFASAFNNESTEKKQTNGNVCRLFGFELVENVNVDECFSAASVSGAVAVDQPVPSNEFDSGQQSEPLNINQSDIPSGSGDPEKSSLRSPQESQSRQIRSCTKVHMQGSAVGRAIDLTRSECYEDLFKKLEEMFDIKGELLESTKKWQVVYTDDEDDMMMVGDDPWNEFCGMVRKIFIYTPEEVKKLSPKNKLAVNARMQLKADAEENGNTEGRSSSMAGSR
Sequence of UniProt O23661 (whole entry, looked up): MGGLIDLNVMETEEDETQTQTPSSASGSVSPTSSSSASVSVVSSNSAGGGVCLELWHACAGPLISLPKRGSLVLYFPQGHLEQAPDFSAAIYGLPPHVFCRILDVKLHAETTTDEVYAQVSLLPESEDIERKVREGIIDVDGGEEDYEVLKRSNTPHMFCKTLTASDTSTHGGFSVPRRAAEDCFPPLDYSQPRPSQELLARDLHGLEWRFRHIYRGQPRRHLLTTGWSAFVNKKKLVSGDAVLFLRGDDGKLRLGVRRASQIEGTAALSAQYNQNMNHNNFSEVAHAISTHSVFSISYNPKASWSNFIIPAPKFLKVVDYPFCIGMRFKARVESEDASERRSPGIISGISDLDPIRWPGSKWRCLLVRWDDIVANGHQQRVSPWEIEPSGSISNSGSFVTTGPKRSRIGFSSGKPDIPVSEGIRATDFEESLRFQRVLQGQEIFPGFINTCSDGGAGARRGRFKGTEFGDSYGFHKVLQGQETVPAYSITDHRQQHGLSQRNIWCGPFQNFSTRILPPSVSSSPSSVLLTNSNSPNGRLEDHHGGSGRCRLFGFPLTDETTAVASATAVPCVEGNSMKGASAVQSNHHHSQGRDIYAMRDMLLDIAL
Sequence of UniProt Q8RYC8 (whole entry, looked up): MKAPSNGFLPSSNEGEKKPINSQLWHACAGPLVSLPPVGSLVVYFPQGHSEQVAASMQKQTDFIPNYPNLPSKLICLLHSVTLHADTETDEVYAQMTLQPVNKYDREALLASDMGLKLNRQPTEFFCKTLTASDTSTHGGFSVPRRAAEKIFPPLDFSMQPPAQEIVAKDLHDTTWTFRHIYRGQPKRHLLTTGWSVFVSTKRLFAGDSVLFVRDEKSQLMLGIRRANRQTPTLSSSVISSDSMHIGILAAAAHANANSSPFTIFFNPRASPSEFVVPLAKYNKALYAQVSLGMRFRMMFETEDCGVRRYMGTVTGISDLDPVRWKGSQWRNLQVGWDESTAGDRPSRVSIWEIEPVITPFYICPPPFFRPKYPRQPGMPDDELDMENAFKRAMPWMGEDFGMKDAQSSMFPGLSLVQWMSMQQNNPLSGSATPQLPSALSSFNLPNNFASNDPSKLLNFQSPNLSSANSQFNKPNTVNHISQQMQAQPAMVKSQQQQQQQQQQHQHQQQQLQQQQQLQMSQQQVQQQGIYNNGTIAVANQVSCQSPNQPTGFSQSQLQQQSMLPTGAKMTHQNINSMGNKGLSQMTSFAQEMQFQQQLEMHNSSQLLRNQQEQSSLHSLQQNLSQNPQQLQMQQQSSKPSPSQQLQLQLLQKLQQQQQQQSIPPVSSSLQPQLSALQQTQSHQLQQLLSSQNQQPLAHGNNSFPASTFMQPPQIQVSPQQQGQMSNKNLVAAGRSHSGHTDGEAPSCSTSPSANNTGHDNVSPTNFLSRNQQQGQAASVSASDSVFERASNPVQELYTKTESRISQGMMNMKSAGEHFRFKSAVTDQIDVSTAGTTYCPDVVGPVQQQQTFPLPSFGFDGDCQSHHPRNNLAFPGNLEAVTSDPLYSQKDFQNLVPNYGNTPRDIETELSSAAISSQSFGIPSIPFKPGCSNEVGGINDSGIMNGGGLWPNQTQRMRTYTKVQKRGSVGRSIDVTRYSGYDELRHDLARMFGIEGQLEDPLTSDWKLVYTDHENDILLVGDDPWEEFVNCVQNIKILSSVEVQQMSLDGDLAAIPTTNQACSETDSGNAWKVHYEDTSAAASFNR
Sequence of UniProt Q8H174 (whole entry, looked up): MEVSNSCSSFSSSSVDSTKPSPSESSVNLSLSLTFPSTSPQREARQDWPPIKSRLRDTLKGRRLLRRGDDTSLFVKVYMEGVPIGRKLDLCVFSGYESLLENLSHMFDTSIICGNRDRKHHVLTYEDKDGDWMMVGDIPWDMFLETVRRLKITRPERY
Sequence of UniProt Q93WC4 (whole entry, looked up): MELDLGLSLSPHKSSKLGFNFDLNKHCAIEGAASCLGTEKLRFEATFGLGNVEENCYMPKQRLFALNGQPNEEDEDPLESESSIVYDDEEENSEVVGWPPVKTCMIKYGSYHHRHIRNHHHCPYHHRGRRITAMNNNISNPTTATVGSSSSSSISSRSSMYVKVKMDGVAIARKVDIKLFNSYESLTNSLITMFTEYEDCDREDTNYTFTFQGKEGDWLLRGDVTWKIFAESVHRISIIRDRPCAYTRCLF
Sequence of UniProt Q8RYC6 (whole entry, looked up): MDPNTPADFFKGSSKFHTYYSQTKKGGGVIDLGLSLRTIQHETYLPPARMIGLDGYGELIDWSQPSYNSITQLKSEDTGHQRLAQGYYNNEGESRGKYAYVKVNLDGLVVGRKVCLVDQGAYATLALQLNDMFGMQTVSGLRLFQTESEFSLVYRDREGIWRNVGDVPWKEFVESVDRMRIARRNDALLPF

Set 1 — method: RNA Bind-n-Seq; molecule type: RNA; matrix: in vitro; concentration: 365 nM; reference: no-protein control; direction: higher = stronger binding
Target: RNA binding protein fox-1 homolog 2, RRM domain, GST-SBP tag (RBFOX2, Homo sapiens, UniProt O43251-10, residues 100-194)
Notes: natural RNA segment, single round, ends assumed
Shared flanks, not repeated: GGGAGUUCUACAGUCCGACGAUC … UGGAAUUCUCGGGUGCCAA
Construct (chain): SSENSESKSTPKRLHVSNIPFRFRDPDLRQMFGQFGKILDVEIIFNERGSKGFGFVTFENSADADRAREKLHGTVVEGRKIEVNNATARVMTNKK
Strand	RBNS enrichment (R)
UUUGUUCACUUUUUAAACUAAAAUAGGAACAUCCGACACACACCGUUUGCAUCGUCUUCUCCCUUGAUAUUUUAAGCAUUUUCCCAUGUCAUGAGUUUCUCAGAAACAUG	0.63
ACAUCAGCACUGCCAACUCGGCUGCAAUUGUGGACCUUCCCUACCAAAGGGAGUGUUGAAACUCAAGUCCCGCCCUGGCUCUUUAGAAUGGACCACUGAGAGCCACAGGA	0.287
CUCCGAGGACCUCAGAACUGGUGCAGCUUCUCUCUCCCUCCCUCCCACAGACUGAACCUUUCGCCAGAAGCUGUCCUUAUAACGCCUUAUACGCAUACACAGCCAGGAAA	0.519
GUACUUUAUUACCUGGAAACAUUCUUAAUAGAGAUUCAUUAGAAAACCCAAAUCUAAUGUUCAUGUGUUCAAGGAACCUUCUUCCAUUAUGUAACAGAACAGUCUAGAGA	0.346
UGGGAGGCCGCCACUGAGCAUCUCUAUUUGUCAUUCCUUUAGCUAUUUAGGGACCAAAGGACCAAACUUUUUAUUGCAGAUGUGUAGCUCUGUCAAUUAGAGGUGGAAUG	0.412
CCCUUACUCAAAAUCAGAUAAUUAACAAUGAAGGAAACUCUAAACUCCCCUUAUGGUCUACCAGUAAUUCAUACUUGAGGACCAUGACUGUGGGGAAUGAGGCAUCUUUU	0.361
GUAUCCUGGAUGGUCUCAUAACGUUGGCCAUAAUAGGUACAUAAUCAGAAGAUCACUUAGACAACAUCUGAUAUUAAUGUGAUUCUUGCAUUCAAGACACUUGCAAAUGU	0.251
AAUACACUUGGAUCACAUUCACUUCCUGUGGAAAAGCUAGCUUUCCCAUGCAGUCAAAGCUUAUAAAGUUAUUUGCCUUAGGCAAAGCCAUUCAUUUCUUUUACCUAUAG	0.439

Set 2 — method: RNA Bind-n-Seq; molecule type: RNA; matrix: in vitro; concentration: 100 nM; notes: RNA with constant flanks, ends assumed; reference: input RNA pool; direction: higher = stronger binding
Target: RING finger protein unkempt homolog, zinc fingers 1-6, SBP tag (UNK, Homo sapiens, UniProt Q9C0B0, residues 30-357)
Sequence of UniProt Q9C0B0 (30-357, looked up): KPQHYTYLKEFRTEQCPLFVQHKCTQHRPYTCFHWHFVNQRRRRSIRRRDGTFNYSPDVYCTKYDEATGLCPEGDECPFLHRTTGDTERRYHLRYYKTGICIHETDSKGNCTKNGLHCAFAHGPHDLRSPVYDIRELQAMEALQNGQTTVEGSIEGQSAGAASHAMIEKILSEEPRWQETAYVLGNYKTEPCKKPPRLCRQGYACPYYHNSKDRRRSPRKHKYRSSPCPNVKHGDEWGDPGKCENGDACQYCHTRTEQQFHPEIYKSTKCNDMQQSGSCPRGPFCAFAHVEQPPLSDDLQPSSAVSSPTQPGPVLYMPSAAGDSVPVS
Shared flanks, not repeated: GGGAGUUCUACAGUCCGACGAUC … CAACAGAGGAUUGAGCAUCA
Strand	bound/input enrichment [ratio]
UGAGCAUACAUAUACAAUGUGUUUCAAAUGCUGCUUGUAAAAUUAAACCAUCAUCCCGAACCGAGUUAAUUUAUUAUAAUCAAGCUACAAACCGGUUUUCUUAAACCAGAGAUGCACUGC	0.433
GAUUUGGACCUUGGAGCUGAACCAGGGAGCCCGCAAAAGUAAAGCAGACUUAUAAAAUUACCGCUAUGUGCAGCUGCACAACACAGUCCUUCCACCCGCAGCUGUGUUAAAGUAUUUAUA	0.267
GAGCUAAAGGAGUCCGCAUCUUUAUUUUUGUAUCAAAAAUAAAGGUUAUUUUGAAAUUAUCCGGAUUUUUACACAAUUCUGAAAUCUGUUGCUUUUGUAAACAAAUUGUUUGAUCUCCGU	0.274
CACAUCCGGUGAUAUUUGGCCUGGCCUUUCAGCUUAUGAUAACCGUCCCCGAUCACCCCACCGUCCUUCACCUAUUGCUACACCACCCCGUCAGAGUUCAUCUUGCUCUGAUGCUCCCAU	0.935
ACAGGAGCAGCACCGGCUGUUUGAGCUUUGGGGAAAUGAACUUUGCUUUUUAUAUUUAACCCGGAUACUUUUAUAUGAUGGGUGCUUUGAGUGUGAAUGCAGCAGGCUCUCUUGUUUCCG	0.611
AAGUAUCCCGGUUUACUGUGUUGAGUUGGCAUUGUACAGAAAUUAACAGCCAUAUUGGUCCCGAAACGUUAAACUUAAUUUUUUUCCAUUUGUACAGGGGUAACGCACUGUAUUAAAUAU	0.34
ACACUUAUAUUGUGGCAUACCGUCAACAUGGAAGCCGACCAGCUCUGCUGAUUUGAAAUUCCGAUUUUUUAAAUUAUGUACUGGGGACAGGUUUUUGUCGCUUUACAUUGCUUCCCCGUU	0.545

Set 3 — Molecule: B1 (IAA14); method: two-hybrid; direction: higher = firmer interaction
B1: IAA14 (Arabidopsis thaliana, UniProt Q38832); chain MNLKETELCLGLPGGTETVESPAKSGVGNKRGFSETVDLKLNLQSNKQGHVDLNTNGAPKEKTFLKDPSKPPAKAQVVGWPPVRNYRKNVMANQKSGEAEEAMSSGGGTVAFVKVSMDGAPYLRKVDLKMYTSYKDLSDALAKMFSSFTMGSYGAQGMIDFMNESKVMDLLNSSEYVPSYEDKDGDWMLVGDVPWPMFVESCKRLRIMKGSEAIGLAPRAMEKFKNRS
partner	reference	positive tests
ETT (Arabidopsis thaliana, UniProt O23661)	out of 4 tests	0
IAA32 (Arabidopsis thaliana, UniProt Q8RYC6)	out of 4 tests	1
IAA29 (Arabidopsis thaliana, UniProt Q93WC4)	out of 4 tests	0
IAA31 (Arabidopsis thaliana, UniProt Q8H174)	out of 2 tests	1
ARF1 538-665 (Arabidopsis thaliana, UniProt Q8L7G0)	out of 4 tests	0
ARF19 948-1086 (Arabidopsis thaliana, UniProt Q8RYC8)	out of 4 tests	4
IAA16 (Arabidopsis thaliana, UniProt O24407)	out of 4 tests	3

Single results of other studies
Molecule	target	effect on	molecule type	direction	quantity	value
AVDADDSHF	HLA class I histocompatibility antigen, A alpha chain, allele A*80:01 (Homo sapiens, UniProt P04439)	peptide-MHC binding	peptide	direction not given	z-score of log IC50	0.38
